Published values of several laboratories.
Parts stem from different laboratories: compare values within a part only.
UniProt O95747, sequence (whole entry, looked up): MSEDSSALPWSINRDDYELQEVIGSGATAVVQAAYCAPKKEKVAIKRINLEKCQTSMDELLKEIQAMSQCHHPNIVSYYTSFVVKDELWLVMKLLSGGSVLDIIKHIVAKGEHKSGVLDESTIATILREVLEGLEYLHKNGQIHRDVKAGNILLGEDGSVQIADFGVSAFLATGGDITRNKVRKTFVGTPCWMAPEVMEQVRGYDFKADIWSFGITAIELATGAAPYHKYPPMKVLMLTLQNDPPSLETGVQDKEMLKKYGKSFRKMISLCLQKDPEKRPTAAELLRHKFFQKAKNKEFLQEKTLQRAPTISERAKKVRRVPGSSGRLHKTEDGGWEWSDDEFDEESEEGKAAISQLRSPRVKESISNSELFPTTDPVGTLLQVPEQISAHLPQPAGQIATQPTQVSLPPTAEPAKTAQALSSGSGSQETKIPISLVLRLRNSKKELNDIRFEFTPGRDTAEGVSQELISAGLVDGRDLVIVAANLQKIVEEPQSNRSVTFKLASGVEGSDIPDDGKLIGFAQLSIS
UniProt P11802, sequence (whole entry, looked up): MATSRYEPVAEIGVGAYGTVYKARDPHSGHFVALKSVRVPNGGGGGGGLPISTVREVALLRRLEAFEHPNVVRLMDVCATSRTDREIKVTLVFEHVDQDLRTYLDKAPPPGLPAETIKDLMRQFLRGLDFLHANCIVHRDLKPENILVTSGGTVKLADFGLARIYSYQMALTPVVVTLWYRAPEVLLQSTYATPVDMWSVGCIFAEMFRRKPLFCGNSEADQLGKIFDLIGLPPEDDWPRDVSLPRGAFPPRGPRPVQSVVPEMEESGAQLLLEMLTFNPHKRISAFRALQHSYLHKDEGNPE
UniProt P07949, sequence (whole entry, unmodified, looked up): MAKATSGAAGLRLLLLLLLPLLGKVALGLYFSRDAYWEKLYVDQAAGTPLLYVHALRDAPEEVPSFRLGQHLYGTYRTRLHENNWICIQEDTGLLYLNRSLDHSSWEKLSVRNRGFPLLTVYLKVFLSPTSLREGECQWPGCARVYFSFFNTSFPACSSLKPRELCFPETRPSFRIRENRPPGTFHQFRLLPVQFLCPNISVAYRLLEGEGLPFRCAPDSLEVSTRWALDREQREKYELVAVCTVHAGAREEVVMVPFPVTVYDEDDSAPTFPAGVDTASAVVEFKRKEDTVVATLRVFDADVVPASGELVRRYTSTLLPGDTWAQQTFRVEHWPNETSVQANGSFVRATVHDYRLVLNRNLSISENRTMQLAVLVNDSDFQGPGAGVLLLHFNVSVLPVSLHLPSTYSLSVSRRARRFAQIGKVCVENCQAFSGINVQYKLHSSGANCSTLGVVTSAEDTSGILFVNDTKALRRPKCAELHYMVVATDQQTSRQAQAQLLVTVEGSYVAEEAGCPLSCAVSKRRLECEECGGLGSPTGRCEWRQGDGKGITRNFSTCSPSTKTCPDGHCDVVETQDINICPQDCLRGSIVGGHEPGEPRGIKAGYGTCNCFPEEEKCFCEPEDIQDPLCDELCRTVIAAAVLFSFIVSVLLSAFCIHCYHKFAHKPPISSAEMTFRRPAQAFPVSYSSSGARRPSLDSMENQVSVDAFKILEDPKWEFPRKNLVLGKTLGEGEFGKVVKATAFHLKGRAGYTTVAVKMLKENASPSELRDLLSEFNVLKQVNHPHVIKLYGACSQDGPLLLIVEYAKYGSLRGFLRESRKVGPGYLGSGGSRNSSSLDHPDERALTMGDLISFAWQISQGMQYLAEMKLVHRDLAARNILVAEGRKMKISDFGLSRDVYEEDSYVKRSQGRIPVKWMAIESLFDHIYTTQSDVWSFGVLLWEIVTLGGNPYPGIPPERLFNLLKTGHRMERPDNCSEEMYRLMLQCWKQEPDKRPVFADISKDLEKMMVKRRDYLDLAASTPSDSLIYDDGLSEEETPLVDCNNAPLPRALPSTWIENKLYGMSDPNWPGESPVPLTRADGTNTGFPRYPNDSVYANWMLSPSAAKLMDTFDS
UniProt Q9UIK4, sequence (whole entry, looked up): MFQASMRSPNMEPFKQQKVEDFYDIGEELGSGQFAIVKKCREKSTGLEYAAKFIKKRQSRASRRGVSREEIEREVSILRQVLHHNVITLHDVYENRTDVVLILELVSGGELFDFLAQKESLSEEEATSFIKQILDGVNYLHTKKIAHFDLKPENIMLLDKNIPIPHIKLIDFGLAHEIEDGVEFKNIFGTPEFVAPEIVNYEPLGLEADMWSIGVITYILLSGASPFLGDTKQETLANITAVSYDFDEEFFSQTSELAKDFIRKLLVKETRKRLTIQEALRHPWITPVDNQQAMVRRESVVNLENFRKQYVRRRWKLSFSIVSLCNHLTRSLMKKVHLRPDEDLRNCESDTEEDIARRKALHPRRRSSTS
UniProt Q14164, sequence (whole entry, looked up): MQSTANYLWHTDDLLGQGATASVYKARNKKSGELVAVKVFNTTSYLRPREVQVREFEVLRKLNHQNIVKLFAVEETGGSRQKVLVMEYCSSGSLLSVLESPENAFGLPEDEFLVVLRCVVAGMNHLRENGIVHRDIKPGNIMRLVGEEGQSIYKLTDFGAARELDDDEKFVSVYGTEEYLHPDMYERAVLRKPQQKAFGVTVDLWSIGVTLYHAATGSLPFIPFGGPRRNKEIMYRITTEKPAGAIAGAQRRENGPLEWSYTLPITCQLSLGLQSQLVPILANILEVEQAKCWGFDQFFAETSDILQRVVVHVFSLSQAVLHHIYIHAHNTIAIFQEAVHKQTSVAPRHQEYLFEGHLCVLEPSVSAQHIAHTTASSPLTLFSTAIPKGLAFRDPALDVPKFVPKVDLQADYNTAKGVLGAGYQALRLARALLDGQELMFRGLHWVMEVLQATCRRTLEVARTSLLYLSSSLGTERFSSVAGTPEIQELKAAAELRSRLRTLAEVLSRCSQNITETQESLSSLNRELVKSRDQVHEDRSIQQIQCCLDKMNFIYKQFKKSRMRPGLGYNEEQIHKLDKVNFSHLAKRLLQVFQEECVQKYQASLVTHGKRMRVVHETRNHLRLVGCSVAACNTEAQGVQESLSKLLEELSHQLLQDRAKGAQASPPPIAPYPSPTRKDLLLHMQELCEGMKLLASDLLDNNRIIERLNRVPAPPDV
UniProt Q13976, sequence (whole entry, looked up): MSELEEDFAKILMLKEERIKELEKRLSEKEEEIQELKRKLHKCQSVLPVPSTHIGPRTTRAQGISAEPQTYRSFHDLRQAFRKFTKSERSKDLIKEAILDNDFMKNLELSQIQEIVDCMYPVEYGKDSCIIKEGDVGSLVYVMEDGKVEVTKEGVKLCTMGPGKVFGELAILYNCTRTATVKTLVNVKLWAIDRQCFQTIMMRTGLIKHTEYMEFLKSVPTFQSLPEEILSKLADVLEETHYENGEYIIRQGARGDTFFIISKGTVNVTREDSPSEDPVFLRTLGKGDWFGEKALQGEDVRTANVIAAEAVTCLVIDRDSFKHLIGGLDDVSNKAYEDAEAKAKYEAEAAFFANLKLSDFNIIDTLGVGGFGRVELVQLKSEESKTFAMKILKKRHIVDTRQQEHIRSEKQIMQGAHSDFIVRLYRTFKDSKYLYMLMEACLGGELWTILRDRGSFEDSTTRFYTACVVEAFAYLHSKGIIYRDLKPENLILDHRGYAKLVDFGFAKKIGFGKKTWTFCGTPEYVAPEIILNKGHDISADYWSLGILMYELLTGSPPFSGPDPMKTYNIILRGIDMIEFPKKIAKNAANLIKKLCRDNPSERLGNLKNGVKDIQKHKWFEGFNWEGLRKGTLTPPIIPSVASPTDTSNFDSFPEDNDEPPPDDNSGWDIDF
UniProt P05771, sequence (whole entry, looked up): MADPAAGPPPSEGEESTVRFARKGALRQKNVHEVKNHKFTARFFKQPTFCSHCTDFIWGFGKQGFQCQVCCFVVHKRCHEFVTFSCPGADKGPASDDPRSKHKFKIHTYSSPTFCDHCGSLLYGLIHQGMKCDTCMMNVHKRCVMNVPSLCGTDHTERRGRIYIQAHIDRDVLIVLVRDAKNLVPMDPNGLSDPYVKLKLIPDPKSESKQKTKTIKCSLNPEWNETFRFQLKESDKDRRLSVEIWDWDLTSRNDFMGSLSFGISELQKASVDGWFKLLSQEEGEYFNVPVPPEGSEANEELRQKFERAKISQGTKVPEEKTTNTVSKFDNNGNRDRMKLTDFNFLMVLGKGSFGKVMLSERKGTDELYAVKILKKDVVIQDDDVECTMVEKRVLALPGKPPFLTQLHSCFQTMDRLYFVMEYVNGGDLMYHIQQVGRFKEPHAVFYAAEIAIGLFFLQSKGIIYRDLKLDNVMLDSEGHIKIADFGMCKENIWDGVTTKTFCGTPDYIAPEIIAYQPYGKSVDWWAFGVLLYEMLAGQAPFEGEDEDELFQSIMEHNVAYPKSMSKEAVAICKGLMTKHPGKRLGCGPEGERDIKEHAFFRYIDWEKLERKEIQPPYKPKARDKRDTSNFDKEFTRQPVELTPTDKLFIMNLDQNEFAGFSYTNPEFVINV
UniProt Q99759, sequence (whole entry, looked up): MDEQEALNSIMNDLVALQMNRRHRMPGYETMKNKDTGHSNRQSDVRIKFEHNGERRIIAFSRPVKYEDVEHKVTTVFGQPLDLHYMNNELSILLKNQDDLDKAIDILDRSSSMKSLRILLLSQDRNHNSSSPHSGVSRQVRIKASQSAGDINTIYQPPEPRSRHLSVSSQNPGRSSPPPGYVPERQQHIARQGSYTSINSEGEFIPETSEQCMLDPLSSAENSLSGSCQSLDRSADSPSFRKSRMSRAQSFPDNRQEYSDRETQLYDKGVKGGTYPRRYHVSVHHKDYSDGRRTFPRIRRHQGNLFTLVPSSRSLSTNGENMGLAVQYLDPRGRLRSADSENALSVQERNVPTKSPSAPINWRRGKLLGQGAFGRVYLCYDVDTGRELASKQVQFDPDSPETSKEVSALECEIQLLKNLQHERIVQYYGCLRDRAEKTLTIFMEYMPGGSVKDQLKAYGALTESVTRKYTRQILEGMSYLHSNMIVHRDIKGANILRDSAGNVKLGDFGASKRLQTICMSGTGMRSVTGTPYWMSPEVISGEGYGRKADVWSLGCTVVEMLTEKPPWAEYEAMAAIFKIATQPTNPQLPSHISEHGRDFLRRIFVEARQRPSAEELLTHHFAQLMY

Series 1
Structure (SMILES): COc1cc(-c2cn(C3CCc4ccccc4N(CC(F)(F)F)C3=O)nn2)ccc1-n1ccc(C)n1 (centres unmarked)
Observed: cell-free assay
Technique: competition with immobilised ligand
Concentration: 1 µM
Endpoint: remaining binding
Ribosomal protein S6 kinase beta-1 (RPS6KB1, Homo sapiens, UniProt P23443): 100%
Proto-oncogene tyrosine-protein kinase receptor Ret (RET, Homo sapiens, UniProt P07949): 91%
Mitogen-activated protein kinase 12 (MAPK12, Homo sapiens, UniProt P53778): 100%
Serine/threonine-protein kinase TBK1 (TBK1, Homo sapiens, UniProt Q9UHD2): 88%
Epidermal growth factor receptor (EGFR, Homo sapiens, UniProt P00533): 100%
Mitogen-activated protein kinase 15 (MAPK15, Homo sapiens, UniProt Q8TD08): 100%
Mitogen-activated protein kinase kinase kinase 9 (MAP3K9, Homo sapiens, UniProt P80192): 91%
Interleukin-1 receptor-associated kinase 1 (IRAK1, Homo sapiens, UniProt P51617): 100%
Mitogen-activated protein kinase kinase kinase 13 (MAP3K13, Homo sapiens, UniProt O43283): 84%
Phosphatidylinositol 4,5-bisphosphate 3-kinase catalytic subunit alpha isoform (PIK3CA, Homo sapiens, UniProt P42336, C420R): 68%
Dual specificity mitogen-activated protein kinase kinase 3 (MAP2K3, Homo sapiens, UniProt P46734): 89%
Proto-oncogene tyrosine-protein kinase receptor Ret (RET, Homo sapiens, UniProt P07949, V804L): 100%
Cyclin-dependent kinase 3 (CDK3, Homo sapiens, UniProt Q00526): 100%
Serine/threonine-protein kinase PAK 4 (PAK4, Homo sapiens, UniProt O96013): 100%
Ephrin type-B receptor 4 (EPHB4, Homo sapiens, UniProt P54760): 92%
G protein-coupled receptor kinase 4 (GRK4, Homo sapiens, UniProt P32298): 100%
Serine/threonine-protein kinase OSR1 (OXSR1, Homo sapiens, UniProt O95747): 91%
Ribosomal protein S6 kinase alpha-1, C-terminal kinase domain (RPS6KA1, Homo sapiens, UniProt Q15418): 95%
Mitogen-activated protein kinase 10 (MAPK10, Homo sapiens, UniProt P53779): 61%
Serine/threonine-protein kinase MARK2 (MARK2, Homo sapiens, UniProt Q7KZI7): 93%
Tyrosine-protein kinase ABL1, non-phosphorylated (ABL1, Homo sapiens, UniProt P00519, Q252H): 90%
Cyclin-dependent kinase 8 (CDK8, Homo sapiens, UniProt P49336): 90%
Tyrosine-protein kinase ITK/TSK (ITK, Homo sapiens, UniProt Q08881): 100%
Cyclin-dependent kinase 4, with cyclin D1 (CDK4, Homo sapiens, UniProt P11802): 90%
Dual specificity mitogen-activated protein kinase kinase 5 (MAP2K5, Homo sapiens, UniProt Q13163): 74%

Series 2
Structure (SMILES): CC(C)n1cnc(-c2ccc(F)cc2)c1-c1ncc(C(=O)Nc2ccc(N3CCN(C)CC3)cc2)[nH]1
Technique: phase 2a trial
Host: patients with IPF
Endpoint: share of patients with TEAE
60 mg once daily, skin and subcutaneous disorders, grade 3: 0%
30 mg once daily, skin and subcutaneous disorders, grade 5: 0%
60 mg once daily, skin and subcutaneous disorders, grade 4: 0%

Series 3
Compound: CCN(c1nc(N)c(C(=O)N=C(N)N)nc1Cl)C(C)C
Observed: β-arrestin recruitment
Action: agonist
Technique: PRESTO-Tango
Concentration: 10 µM
Baseline: untreated
Endpoint: fold over basal
Thyrotropin-releasing hormone receptor (TRHR, Homo sapiens, UniProt P34981): 3.03 fold
Somatostatin receptor type 5 (SSTR5, Homo sapiens, UniProt P35346): 0.52 fold
G-protein coupled receptor 55 (GPR55, Homo sapiens, UniProt Q9Y2T6): 1.25
G-protein coupled receptor 83 (GPR83, Homo sapiens, UniProt Q9NYM4): 0.52
Probable G-protein coupled receptor 174 (Homo sapiens, UniProt Q9BXC1): 0.85
5-hydroxytryptamine receptor 2C (HTR2C, Homo sapiens, UniProt P28335): 1.22
C-C chemokine receptor type 5 (CCR5, Homo sapiens, UniProt P51681): 1.94
Prolactin-releasing peptide receptor (PRLHR, Homo sapiens, UniProt P49683): 0.99
G-protein coupled receptor 78 (GPR78, Homo sapiens, UniProt Q96P69): 0.92

Series 4
Compound: Nc1ncnc2c1cnn2-c1ccccc1
Observed: enzyme activity
Action: inhibitor
Concentration: 0.5 µM
Baseline: control
Endpoint: remaining activity
Protein kinase C beta type, isoform beta-I (PRKCB, Homo sapiens, UniProt P05771): 95.2%
Protein kinase C alpha type (PRKCA, Homo sapiens, UniProt P17252): 103%
cGMP-dependent protein kinase 1, isoform beta (PRKG1, Homo sapiens, UniProt Q13976): 107%
Serine/threonine-protein kinase STK11 (STK11, Homo sapiens, UniProt Q15831): 93.9%
Inhibitor of nuclear factor kappa-B kinase subunit epsilon (IKBKE, Homo sapiens, UniProt Q14164): 100%
Serine/threonine-protein kinase 10 (STK10, Homo sapiens, UniProt O94804): 95.4%
Cyclin-dependent kinase 4, with cyclin D1 (CDK4, Homo sapiens, UniProt P11802): 103%
Serine/threonine-protein kinase Chk2 (CHEK2, Homo sapiens, UniProt O96017): 95.5%
STE20/SPS1-related proline-alanine-rich protein kinase (STK39, Homo sapiens, UniProt Q9UEW8): 107%
TGF-beta receptor type-1 (TGFBR1, Homo sapiens, UniProt P36897): 99.6%
Serine/threonine-protein kinase Nek2 (NEK2, Homo sapiens, UniProt P51955): 98.8%
Serine/threonine-protein kinase OSR1 (OXSR1, Homo sapiens, UniProt O95747): 92.6%
G protein-coupled receptor kinase 3 (GRK3, Homo sapiens, UniProt P35626): 105%
Cyclin-dependent kinase 5, with p25 (CDK5, Homo sapiens, UniProt Q00535): 102%
Calcium/calmodulin-dependent protein kinase type II subunit delta (CAMK2D, Homo sapiens, UniProt Q13557): 94.7%
Mitogen-activated protein kinase kinase kinase 3 (MAP3K3, Homo sapiens, UniProt Q99759): 95.5%
Death-associated protein kinase 2 (DAPK2, Homo sapiens, UniProt Q9UIK4): 96.7%
Mitogen-activated protein kinase 9 (MAPK9, Homo sapiens, UniProt P45984): 88.2%
Inhibitor of nuclear factor kappa-B kinase subunit beta (IKBKB, Homo sapiens, UniProt O14920): 97.3%
TGF-beta receptor type-2 (TGFBR2, Homo sapiens, UniProt P37173): 105%
Tyrosine-protein kinase Lyn, isoform B (LYN, Homo sapiens, UniProt P07948): 99.7%
Death-associated protein kinase 1 (DAPK1, Homo sapiens, UniProt P53355): 98.5%

Repeated from above (series 4):
Serine/threonine-protein kinase 10 (STK10, Homo sapiens, UniProt O94804): 95.4%
Protein kinase C beta type, isoform beta-I (PRKCB, Homo sapiens, UniProt P05771): 95.2%
cGMP-dependent protein kinase 1, isoform beta (PRKG1, Homo sapiens, UniProt Q13976): 107%
Serine/threonine-protein kinase Chk2 (CHEK2, Homo sapiens, UniProt O96017): 95.5%
G protein-coupled receptor kinase 3 (GRK3, Homo sapiens, UniProt P35626): 105%
Protein kinase C alpha type (PRKCA, Homo sapiens, UniProt P17252): 103%
Serine/threonine-protein kinase Nek2 (NEK2, Homo sapiens, UniProt P51955): 98.8%
Inhibitor of nuclear factor kappa-B kinase subunit epsilon (IKBKE, Homo sapiens, UniProt Q14164): 100%
TGF-beta receptor type-2 (TGFBR2, Homo sapiens, UniProt P37173): 105%
